Published values pooled from the literature.
Lines come from different studies, so protocols differ. Values joined by “and” are separate records of one study, mostly repeats; a detail may differ. ± gives the spread as reported.
YWHAG/RELA phospho-Ser45 p65 peptide: YWHAG/RELA, phospho-Ser45 p65 peptide (Homo sapiens, UniProt P61981+Q04206)
Chain of UniProt P61981 (whole entry, looked up): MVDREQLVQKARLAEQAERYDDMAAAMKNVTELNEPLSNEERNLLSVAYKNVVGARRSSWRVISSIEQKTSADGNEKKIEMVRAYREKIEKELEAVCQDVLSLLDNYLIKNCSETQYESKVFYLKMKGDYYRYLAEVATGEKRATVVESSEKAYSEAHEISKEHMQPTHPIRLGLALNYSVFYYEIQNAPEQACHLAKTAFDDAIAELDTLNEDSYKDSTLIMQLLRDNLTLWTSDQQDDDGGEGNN
Chain of UniProt Q04206 (whole entry, looked up): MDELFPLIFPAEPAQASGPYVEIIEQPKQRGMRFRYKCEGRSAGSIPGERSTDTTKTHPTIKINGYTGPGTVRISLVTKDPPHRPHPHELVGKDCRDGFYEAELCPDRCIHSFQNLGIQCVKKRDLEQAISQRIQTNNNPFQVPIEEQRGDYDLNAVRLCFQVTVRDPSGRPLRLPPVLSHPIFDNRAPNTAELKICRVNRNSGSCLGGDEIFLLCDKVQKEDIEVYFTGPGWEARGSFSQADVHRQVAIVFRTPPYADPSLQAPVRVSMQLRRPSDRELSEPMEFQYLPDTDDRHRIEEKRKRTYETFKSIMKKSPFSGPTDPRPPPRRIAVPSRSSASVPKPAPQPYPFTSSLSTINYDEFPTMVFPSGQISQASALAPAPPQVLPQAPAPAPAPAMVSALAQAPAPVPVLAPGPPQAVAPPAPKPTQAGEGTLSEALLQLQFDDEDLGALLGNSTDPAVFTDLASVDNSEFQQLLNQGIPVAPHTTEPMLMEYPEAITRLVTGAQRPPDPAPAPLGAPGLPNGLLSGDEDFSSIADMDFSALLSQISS
Nuclear receptor subfamily 2 group C member 2 ligand-binding domain: Nuclear receptor subfamily 2 group C member 2, ligand-binding domain (Homo sapiens, UniProt P49116)
Chain of UniProt P49116 (whole entry, looked up): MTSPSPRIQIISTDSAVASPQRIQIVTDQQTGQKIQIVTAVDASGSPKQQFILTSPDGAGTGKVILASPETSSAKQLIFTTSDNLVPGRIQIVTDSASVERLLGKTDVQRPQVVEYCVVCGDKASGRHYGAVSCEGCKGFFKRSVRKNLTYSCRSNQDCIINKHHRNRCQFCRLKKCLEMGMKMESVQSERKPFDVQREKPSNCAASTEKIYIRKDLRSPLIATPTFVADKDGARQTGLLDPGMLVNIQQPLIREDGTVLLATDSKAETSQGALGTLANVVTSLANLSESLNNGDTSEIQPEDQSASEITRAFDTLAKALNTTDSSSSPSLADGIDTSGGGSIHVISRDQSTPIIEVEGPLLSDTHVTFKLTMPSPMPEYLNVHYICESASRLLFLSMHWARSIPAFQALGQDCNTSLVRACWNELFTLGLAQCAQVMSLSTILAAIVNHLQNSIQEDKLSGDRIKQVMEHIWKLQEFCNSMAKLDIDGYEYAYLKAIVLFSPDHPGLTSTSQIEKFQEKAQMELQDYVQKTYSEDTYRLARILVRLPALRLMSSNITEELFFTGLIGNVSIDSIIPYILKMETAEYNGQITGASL

With CC(/C=C/C(=O)NO)=C\[C@@H](C)C(=O)c1ccc(N(C)C)cc1 the viability was 2.65% (OCI-Ly1; 0.5 µM, 120 h).
Cn1cc(-c2ccc(-c3cncc(Cl)c3N3CCC4(CCNC4=O)CC3)cc2)cn1 — result for “log2 fold change”: 3.07 (COLO 205; gene expression, microarray, item: SLC2A1 mRNA; concentration not given, 6 h; relative to: untreated cells).
Cc1nc(C(F)(F)F)ccc1C(=O)Oc1cc(C=O)ccc1[N+](=O)[O-] gave an EC50 of greater than 1000 µM (YWHAG/RELA phospho-Ser45 p65 peptide; ternary complex formation, stabilizer, fluorescence anisotropy).
The ΔTm of NCCCOc1cc(NC(=O)c2cccc(C(=O)Nc3cc(OCCCN)c4ccccc4n3)n2)nc2ccccc12 is reported as 9.7 ± 0.5 K (c-kit2 G-quadruplex DNA; FRET melting; 1 µM, pH 7.4, added: 60 mM potassium).
The viability of Oc1cc(O)cc(/C=C/c2ccc(O)c(O)c2)c1 is reported as 153% (OCI-Ly1; 0.5 µM, 120 h).
CC[C@@]1(O)C(=O)OCc2c1cc1n(c2=O)Cc2cc3c(CN(C)C)c(O)ccc3nc2-1 gave a Kd of 0.0168 µM (Nuclear receptor subfamily 2 group C member 2 ligand-binding domain; SPR imaging).
The viability of CCCOc1ccn2c(C(C)=O)cc(-c3ccccc3S(C)(=O)=O)c2c1 is reported as 113% (OCI-Ly1; 0.1 µM, 120 h).
For O=C(O)CNC(=O)Cc1ccccc1, the sarcomere length was 1.72 µm (ventricular cardiomyocytes, C57BL/6 mouse; dose not given, 0.368 s).
Cn1cc(/C=C/C(=O)c2cccc(F)c2)cc1/C=C/C(=O)NO gave a viability of 111% (OCI-Ly1; 1 µM, 120 h).
The delta Tm of COc1cc(C(=O)Nc2cc(OC)c3ccccc3n2)nc(C(=O)Nc2cc(OC)c3ccccc3n2)c1 is reported as 0 ± 0.2 K (double-stranded DNA; FRET melting; 1 µM, pH 7.4, 60 mM potassium, added: oligonucleotide 200 nM).
With O=C(/C=C/C=C/C=C/C1CCCCC1)NC1=C[C@@](O)(/C=C/C=C/C=C/C(=O)NC2=C(O)CCC2=O)[C@@H]2O[C@@H]2C1=O the GI50 was 10.7 µM (ABC-1; cell growth, CellTiter-Glo; 78 h).
NCCCOc1cc(NC(=O)c2cc(OCc3c[nH]nn3)cc(C(=O)Nc3cc(OCCCN)c4ccccc4n3)n2)nc2ccccc12 has a ΔTm of 7.4 ± 0.3 K (c-kit2 G-quadruplex DNA; FRET melting; 1 µM, pH 7.4, added: 60 mM potassium).
The viability of Cc1cc(C)c(CNC(=O)c2cc(-c3ccc(CN4CCOCC4)cc3)cc3c2cnn3C2CCCC2)c(=O)[nH]1 is reported as 149% (OCI-Ly1; 1 µM, 120 h).
With NC(=O)c1cnc2[nH]ccc2c1N[C@@H]1[C@@H]2CC3C[C@H]1C[C@@](O)(C3)C2 the percent change was -1.65% (CD4+ CD28+ naive T cells, flow cytometry; Caucasian humans, peripheral blood; 200 mg single dose; relative to: baseline).
For OCCOCCN1CCN(C(c2ccccc2)c2ccc(Cl)cc2)CC1 (centres unmarked), the Kd was 0.00742 µM (Nuclear receptor subfamily 2 group C member 2 ligand-binding domain; SPR imaging).
With Cc1cc(/N=N/c2ccc(S(=O)(=O)Nc3ccccn3)cc2)c(N)cc1O the viability was 155% (OCI-Ly1; 0.5 µM, 120 h).
For c1coc(-c2n[nH]cc2-c2ccnc3ccccc23)c1, “log2 fold change” read -0.18 (KNS1 (Candida albicans); kinase binding, MIB/MS competition; Candida albicans lysate; 1 µM; relative to: DMSO).
With CC(C)n1ncc2c(C(=O)NCC3(C)CNC3)cc(C3CC3)nc21 the cell protection was 0% and -0.137% (Enterovirus D68; cytopathic effect; RD, US/MO/14-18949; 15 nM).
Oc1ccccc1-c1n[nH]cc1-c1ccnc2ccccc12 — result for “log2 fold change”: 2.43 (RAD53 (Candida albicans); kinase binding, MIB/MS competition; Candida albicans lysate; 10 µM; relative to: DMSO).
Cc1cc(OC(C)C)ccc1C(=O)C(C)(C)NC(=O)c1sccc1C gave an inhibition of 1.7 ± 1.2% (Botrytis cinerea; appressorium formation; B05.10; 0.003 µg/mL).
With CN[C@H](CC(C)C)C(=O)N[C@H]1C(=O)N[C@@H](CC(N)=O)C(=O)N[C@H]2C(=O)N[C@H]3C(=O)N[C@H](C(=O)N[C@H](C(=O)O)c4cc(O)cc(O)c4-c4cc3ccc4O)[C@H](O)c3ccc(c(Cl)c3)Oc3cc2cc(c3O[C@@H]2O[C@H](CO)[C@@H](O)[C@H](O)[C@H]2O[C@H]2C[C@](C)(N)[C@H](O)[C@H](C)O2)Oc2ccc(cc2Cl)[C@H]1O the bacterial load was 8.17 log CFU and 5.82 log CFU and 6.3 log CFU and 8.39 log CFU and 8.11 log CFU (Staphylococcus epidermidis; 9397, female ICR mice, peritonitis, spleen; dose not given).
O=C(NCc1ccccc1)c1c(/N=C/c2c(O)ccc3ccccc23)sc2c1CCCC2 has a viability of 65.2% (OCI-Ly1; 0.5 µM, 120 h).
The ΔTm of NCCCOc1cc(NC(=O)c2cc(OCCN)cc(C(=O)Nc3cc(OCCCN)c4ccccc4n3)n2)nc2ccccc12 is reported as 35.1 ± 0.9 K (human telomeric G-quadruplex DNA; FRET melting; 1 µM, pH 7.4, added: 60 mM potassium).
CC(=O)N1CCN(c2cc(C=O)ccc2[N+](=O)[O-])CC1 gave an EC50 of greater than 1000 µM (YWHAG/RELA phospho-Ser45 p65 peptide; ternary complex formation, stabilizer, fluorescence anisotropy).
With CCCC(=O)O the viability was 144% (OCI-Ly1; 1 µM, 120 h).
Under “percent change from baseline”, C[C@H]1C[C@H]2CSC(N)=N[C@@]2(c2nc(NC(=O)c3ccc(OC(F)F)cn3)cs2)CO1 is recorded as -67.4% (item: total Aβ; healthy adults, plasma; 400 mg single dose, 48 h post-dose; relative to: placebo).
For O=C(Nc1cc(OCCN2CCCC2)c2ccccc2n1)c1cc(OCc2ccc(F)cc2)cc(C(=O)Nc2cc(OCCN3CCCC3)c3ccccc3n2)n1, the delta Tm was 0 ± 0.2 K (double-stranded DNA; FRET melting; 1 µM, pH 7.4, 60 mM potassium, added: oligonucleotide 200 nM).
The EC50 of CCn1cc(-c2cc(Cn3ccoc3=N)cc3c2CCN([C@@H](C)c2cc(OC)ccn2)C3=O)c(C(F)(F)F)n1 is reported as 2.71 µM (HCC1954; cell growth, inhibitor; 120 h).
The ΔTm of C#CCOc1cc(C(=O)Nc2cc(OCCN)c3ccccc3n2)nc(C(=O)Nc2cc(OCCN)c3ccccc3n2)c1 is reported as 16 ± 1 K (human telomeric G-quadruplex DNA; FRET melting; 1 µM, pH 7.4, added: 60 mM potassium).
With CC(C)NCC(O)c1ccc(O)c(O)c1 (centres unmarked) the sarcomere length was 1.5 µm (ventricular cardiomyocytes, C57BL/6 mouse; dose not given, 0.864 s).
With NCCOc1cc(NC(=O)c2cccc(C(=O)Nc3cc(OCCN)c4ccccc4n3)n2)nc2ccccc12 the ΔTm was 19.7 ± 0.5 K (c-kit2 G-quadruplex DNA; FRET melting; 1 µM, pH 7.4, added: 60 mM potassium).
With CCn1cc(-c2cc(Cn3ccnc3)cc3c2CCN([C@H](c2cc(OC)ccn2)C2CC2)C3=O)c(C(F)(F)F)n1 the EC50 was greater than 30 µM (Lu-65; cell growth, inhibitor; 120 h).

Repeated from above:
Cn1cc(-c2ccc(-c3cncc(Cl)c3N3CCC4(CCNC4=O)CC3)cc2)cn1 — result for “log2 fold change”: 3.07 (COLO 205; gene expression, microarray, item: SLC2A1 mRNA; concentration not given, 6 h; relative to: untreated cells).
The viability of CCCOc1ccn2c(C(C)=O)cc(-c3ccccc3S(C)(=O)=O)c2c1 is reported as 113% (OCI-Ly1; 0.1 µM, 120 h).
